Assay results gathered from unrelated publications.
Numbered parts are unrelated; each lists some results of a single study. Substitutions count along the parent as printed.

Sample 1 — target: CEP164, C-terminal peptide (human); technique: DHFR complementation, deep sequencing; medium: yeast; relative to: wild type; direction: higher = weaker binding
Setting: single substitutions, model-inferred values
Starting sequence: PDZK1, PDZ domain 2 (human); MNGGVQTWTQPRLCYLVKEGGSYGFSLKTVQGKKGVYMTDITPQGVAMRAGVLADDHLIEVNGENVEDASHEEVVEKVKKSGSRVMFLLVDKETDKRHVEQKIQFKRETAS; partner HNRVKVYRF
`G21Q` — result for “binding free energy change”: 0.115 kcal/mol.
Under “binding free energy change”, `C14M` is recorded as 0.594 kcal/mol.
`T109I` — result for “binding free energy change”: -0.152 kcal/mol.
`R49N`: “binding free energy change” 0.373 kcal/mol.
`V46F` — result for “binding free energy change”: 0.936 kcal/mol.

Sample 2 — technique: protein-binding microarray; molecule type: double-stranded DNA, one strand shown; medium: in vitro; tested at: 2200 nM top; setting: 60-bp whole probe; added: salmon DNA 0.4 mg/ml; relative to: random background probes; direction: higher = stronger binding; shared flanks, not repeated: GCCTAGCAC … GTCTTGATTCGCTTGACGCTGCTG
Target: Interferon regulatory factor 7, full length, phosphomimetic (IRF7, Homo sapiens, UniProt Q92985, residues 1-503, S471D/S472D/S475D/S476D/S477D/S483D/S484D/S487D)
Chain of UniProt Q92985 (whole entry, unmodified, looked up): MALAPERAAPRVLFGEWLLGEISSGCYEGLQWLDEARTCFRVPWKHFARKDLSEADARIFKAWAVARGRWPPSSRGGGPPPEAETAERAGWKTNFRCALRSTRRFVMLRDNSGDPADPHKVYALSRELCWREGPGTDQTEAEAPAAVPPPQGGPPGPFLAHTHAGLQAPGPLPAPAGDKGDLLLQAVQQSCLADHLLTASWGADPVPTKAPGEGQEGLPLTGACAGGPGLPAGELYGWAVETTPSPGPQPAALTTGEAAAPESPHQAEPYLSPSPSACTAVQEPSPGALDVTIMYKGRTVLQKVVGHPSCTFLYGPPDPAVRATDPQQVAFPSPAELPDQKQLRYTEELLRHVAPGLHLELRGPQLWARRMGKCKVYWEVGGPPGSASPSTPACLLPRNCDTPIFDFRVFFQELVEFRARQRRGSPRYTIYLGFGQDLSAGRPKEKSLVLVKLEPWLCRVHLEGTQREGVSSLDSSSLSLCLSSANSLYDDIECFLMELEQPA
For `GACGGTTTCGGTTTCGGGCCGTGCTAG`, “fitted relative affinity” read 14.3 z-score.
For `GTGAGTCCCAAGAATGGTGTGGTGCTA`, “fitted relative affinity” read -0.352 z-score.
For `GACGGACTGGGTATCGAGACGTGCTAG`, “fitted relative affinity” read -0.519 z-score.
For `AACGGTTTCGGGACTGGGGACGTGCTA`, “fitted relative affinity” read 3.85 z-score.
For `TCATATGCCGACTTTGGAACTGTGCTA`, “fitted relative affinity” read 0.435 z-score.
Under “fitted relative affinity”, `TTTTTTTTTTTTTGGAATGTGTGCTAG` is recorded as 2.58 z-score.
Under “fitted relative affinity”, `TTAGGTTTCGGAATGGGTTAGTGCTAG` is recorded as 6.28 z-score.

Sample 3 — technique: protein-binding microarray; molecule type: double-stranded DNA, one strand shown; medium: in vitro; tested at: 0.8 µM; setting: whole 60-bp probe, no competitor; direction: higher = stronger binding
Target: Centromere-binding protein 1, full length, N-terminal tag (CBF1, Saccharomyces cerevisiae, UniProt P17106, residues 1-351)
Chain of UniProt P17106 (whole entry, looked up): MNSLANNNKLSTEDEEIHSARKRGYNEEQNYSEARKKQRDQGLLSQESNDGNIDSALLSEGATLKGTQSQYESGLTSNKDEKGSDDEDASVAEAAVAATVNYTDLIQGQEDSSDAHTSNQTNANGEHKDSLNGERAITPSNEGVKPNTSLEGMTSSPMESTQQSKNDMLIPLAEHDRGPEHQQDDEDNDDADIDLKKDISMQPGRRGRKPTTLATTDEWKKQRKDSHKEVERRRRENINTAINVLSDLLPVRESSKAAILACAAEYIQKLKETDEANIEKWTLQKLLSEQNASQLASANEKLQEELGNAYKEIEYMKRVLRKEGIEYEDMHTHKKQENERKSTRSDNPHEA
The fluorescence intensity of `GAAGTTATTGCGGCGCACGTCTATAGGTGATTTTAGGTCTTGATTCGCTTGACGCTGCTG` is reported as 531 a.u.
`GAATAATAGGAAAACCACCACCGGCAGTTACAATAGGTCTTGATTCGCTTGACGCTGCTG` gave a fluorescence intensity of 501 a.u.
With `GAACTAGTAGTACCAGGTGAGGTAAAACAAGCATAGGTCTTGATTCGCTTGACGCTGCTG` the fluorescence intensity was 571 a.u.
The fluorescence intensity of `GAATTCAAGTCTCATCATATGAAATTTCTTTCGTAGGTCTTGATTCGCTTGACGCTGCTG` is reported as 551 a.u.
`GAATCCCTGTTGATTAACGTGTTTATCCATTTCTAGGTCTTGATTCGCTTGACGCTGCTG` has a fluorescence intensity of 479 a.u.
`CCTAACTACTATACAGGTGCGTGATAGCTTCGTACAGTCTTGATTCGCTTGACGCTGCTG` has a fluorescence intensity of 693 a.u.
For `GAATATGCATTTTCTCATGACCTATTCATTCGGTAGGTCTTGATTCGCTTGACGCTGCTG`, the fluorescence intensity was 608 a.u.
With `CTACATTGAAATAATATCGTGATTATGGGCTGGTTCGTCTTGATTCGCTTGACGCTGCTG` the fluorescence intensity was 716 a.u.
`GAAAAGAGCATGCATCACCCCATACGATCCCCGTAGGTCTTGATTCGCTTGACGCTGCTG` has a fluorescence intensity of 512 a.u.
With `CTAATCGTGTCCAATTCCGTGATGTCTCTTTGTTTCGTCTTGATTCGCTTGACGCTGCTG` the fluorescence intensity was 524 a.u.
With `GAAGAATCTTCGTCTCACGTGGTTTCTCAGCGTTAGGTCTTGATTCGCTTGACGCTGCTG` the fluorescence intensity was 5050 a.u.
`CTAAGTGTCTCATCAAACGTGGTTAAGACAGAATTCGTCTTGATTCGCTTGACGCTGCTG` gave a fluorescence intensity of 546 a.u.

Mixed results
`PhoQ, residues 284 288 289 292 302 303 AANNSF` gave a fold induction of 6.57 (PhoP, residues 12 14 15 18 19 NQGLL (Escherichia coli, UniProt P23836); Sort-seq, measured: YFP reporter; E. coli; PhoQ-PhoP variant library, added: 10 µM Mg2+; relative to: high Mg2+ state, higher = stronger signaling).

Repeated from above (sample 2):
For `GACGGACTGGGTATCGAGACGTGCTAG`, “fitted relative affinity” read -0.519 z-score.
For `AACGGTTTCGGGACTGGGGACGTGCTA`, “fitted relative affinity” read 3.85 z-score.
For `TCATATGCCGACTTTGGAACTGTGCTA`, “fitted relative affinity” read 0.435 z-score.
Under “fitted relative affinity”, `TTTTTTTTTTTTTGGAATGTGTGCTAG` is recorded as 2.58 z-score.
